Published values gathered from unrelated publications.
Parts stem from different laboratories: compare values within a part only. “And” joins repeats or separate records; there may be more than shown.
UniProt P18089, sequence (whole entry, looked up): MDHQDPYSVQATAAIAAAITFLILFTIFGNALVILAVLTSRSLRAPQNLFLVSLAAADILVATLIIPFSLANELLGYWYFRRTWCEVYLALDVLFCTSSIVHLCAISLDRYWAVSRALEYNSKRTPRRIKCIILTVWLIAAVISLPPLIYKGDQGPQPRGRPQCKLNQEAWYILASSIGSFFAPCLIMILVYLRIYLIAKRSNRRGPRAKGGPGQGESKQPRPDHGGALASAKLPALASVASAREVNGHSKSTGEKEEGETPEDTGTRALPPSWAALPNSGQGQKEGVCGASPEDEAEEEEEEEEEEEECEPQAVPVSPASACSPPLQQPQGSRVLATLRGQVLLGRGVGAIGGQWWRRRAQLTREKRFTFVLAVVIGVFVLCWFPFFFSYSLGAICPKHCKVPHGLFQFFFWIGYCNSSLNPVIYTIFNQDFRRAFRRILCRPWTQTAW
UniProt P28223, sequence (whole entry, looked up): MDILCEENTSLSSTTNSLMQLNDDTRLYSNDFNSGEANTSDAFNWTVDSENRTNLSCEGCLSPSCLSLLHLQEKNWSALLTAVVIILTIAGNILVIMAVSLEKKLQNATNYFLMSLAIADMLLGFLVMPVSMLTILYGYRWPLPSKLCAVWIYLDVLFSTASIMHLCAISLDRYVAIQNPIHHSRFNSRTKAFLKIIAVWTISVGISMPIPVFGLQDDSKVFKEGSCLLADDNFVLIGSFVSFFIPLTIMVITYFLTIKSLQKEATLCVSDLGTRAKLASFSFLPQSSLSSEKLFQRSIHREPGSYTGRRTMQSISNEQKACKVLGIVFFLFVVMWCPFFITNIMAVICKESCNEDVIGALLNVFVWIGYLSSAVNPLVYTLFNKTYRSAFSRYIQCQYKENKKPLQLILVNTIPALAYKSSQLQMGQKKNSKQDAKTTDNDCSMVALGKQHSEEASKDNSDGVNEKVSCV

Sample 1
Cell line: HEK-293T
Effect on: pseudovirus infection
Method: FDA-approved drug library counter-screen
Organism: VSV pseudotyped with VSV-G
Tested at: 10 µM
Time: 16 h
Relative to: vehicle-treated
| SMILES | GFP-positive cells [%] |
| --- | --- |
| NS(=O)(=O)c1cc2c(cc1Cl)NCNS2(=O)=O | 104 |
| C=C(c1ccc(C(=O)O)cc1)c1cc2c(cc1C)C(C)(C)CCC2(C)C | 84 |
| CN(C)CCC[C@@]1(c2ccc(F)cc2)OCc2cc(C#N)ccc21 | 102 |

Sample 2
Cell line: HEK-293T-ACE2-TMPRSS2
Method: cell count
Tested at: concentration not given
| SMILES | viability [%] |
| --- | --- |
| Cc1cccc(NC(=O)c2cc3cc(N(C)S(=O)(=O)c4ccccc4)ccc3s2)c1 | 67 |
| CC1=CC(=O)C(CCOCCC2=CC(=O)C(C)=CC2=O)=CC1=O | 78 |
| CCN1CCN(Cc2ccc(NC(=O)c3cc4c(C)nn(-c5ccc(Cl)cc5)c4s3)cc2)CC1 | 81 |

Other studies, line by line
| SMILES | target or system | effect on | method | tested at | relative to | measurement | result |
| --- | --- | --- | --- | --- | --- | --- | --- |
| CNC(=O)c1cc(C(=O)NC2CC2)cn(Cc2ccccc2)c1=O | Alpha-2B adrenergic receptor (ADRA2B, Homo sapiens, UniProt P18089) | binding | radioligand binding | 10 µM |  | inhibition | 5.2% |
| CO[C@@H]1[C@@H](OC(N)=O)[C@@H](O)[C@H](Oc2ccc3c(O)c(NC(=O)c4ccc(O)c(CC=C(C)C)c4)c(=O)oc3c2C)OC1(C)C | RPE-1 BRCA2-/- |  |  | 100 µM | untreated | surviving fraction | 0.808 and 0.715 |
| CC(=O)N1CCC(c2ccc(C(=O)NC(=N)N)cc2C(F)(F)F)CC1 | 5-hydroxytryptamine receptor 2A (HTR2A, Homo sapiens, UniProt P28223) | binding | radioligand binding |  |  | Ki | > 10 µM |

For quick reference, copied from above (sample 1):
| SMILES | GFP-positive cells [%] |
| --- | --- |
| NS(=O)(=O)c1cc2c(cc1Cl)NCNS2(=O)=O | 104 |
